# Measurements gathered from unrelated publications.
# Numbered parts are unrelated; each lists some results of a single study. Substitutions count along the parent as printed.

# Series 1
# Target: CCND3, cyclin fold, Cln2 fusion (human)
# Technique: yeast growth competition, sequencing
# Medium: yeast
# Setting: weak parent motif
# Baseline: not given
# Direction: higher = stronger binding
# Parent: ORC1 docking peptide (human); PRARKRLELGNLG; partner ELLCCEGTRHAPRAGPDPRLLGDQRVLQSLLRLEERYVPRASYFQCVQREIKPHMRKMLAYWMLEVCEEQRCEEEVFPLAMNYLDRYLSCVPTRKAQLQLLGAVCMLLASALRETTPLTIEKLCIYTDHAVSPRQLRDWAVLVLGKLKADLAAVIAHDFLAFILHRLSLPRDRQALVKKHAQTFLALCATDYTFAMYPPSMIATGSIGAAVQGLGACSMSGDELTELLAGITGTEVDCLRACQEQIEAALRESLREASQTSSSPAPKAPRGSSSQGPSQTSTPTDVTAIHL
Substitution,normalised enrichment score
L9H,0.159
R2W,0.217
R2Q,0.0754
K5N,0.108
N11R,0.154
A3P,0.12
E8Q,0.138
L9G,0.0483
E8L,0.133
G13C,0.168
G13H,0.119
R4Y,0.114
G10D,0.138
A3D,0.0562
L12Q,0.108
E8M,0.0534
R2L,0.0906
R4N,0.206

# Series 2
# Target: Histone acetyltransferase KAT6A, winged helix 1, GST fusion (KAT6A, Homo sapiens, UniProt Q92794, residues 1-85)
# Technique: protein binding microarray
# Molecule type: double-stranded DNA, one strand shown
# Medium: in vitro
# Tested at: not given
# Setting: 8-mer, flanks averaged, mean of 2 arrays, mostly near background
# Baseline: not given
# Direction: higher = stronger binding
# Construct (chain): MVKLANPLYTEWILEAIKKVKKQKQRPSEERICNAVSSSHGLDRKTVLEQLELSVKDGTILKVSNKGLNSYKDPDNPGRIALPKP
Sequence,E-score
ACAGCGGC,0.305
ACATTTAA,-0.122
CAAGATCC,-0.0556
CGTACATC,0.0702
ACCCTTCT,-0.112
ATGCGTGA,0.0905
ATAAGTGC,-0.153
CGTGCCTC,0.0801
AACTTCAA,-0.129
CGAAAGCC,0.102
CTCACATA,0.0219
ATCACAAA,-0.291
ACGGCCCG,0.356
GCAACCCC,0.198
ACAGATAA,-0.106
TCATGGGA,-0.213
CCTAACTA,-0.0647
ACCCATTG,-0.0721
CGTCGTCA,0.135
ACTAAGGA,-0.153
GTCTCAGA,-0.133
ATACACCC,-0.00395
TCCTTTAA,-0.141
ATTTTCGA,-0.147
GCTATCGA,0.0793

# Series 3
# Target: RNA binding protein fox-1 homolog 2, RRM domain, GST-SBP tag (RBFOX2, Homo sapiens, UniProt O43251-10, residues 100-194)
# Technique: RNA Bind-n-Seq
# Molecule type: RNA
# Medium: in vitro
# Tested at: 365 nM
# Setting: natural RNA segment, single round, ends assumed
# Baseline: no-protein control
# Direction: higher = stronger binding
# Constant ends, left off below: GGGAGUUCUACAGUCCGACGAUC … UGGAAUUCUCGGGUGCCAA
# Residues (chain): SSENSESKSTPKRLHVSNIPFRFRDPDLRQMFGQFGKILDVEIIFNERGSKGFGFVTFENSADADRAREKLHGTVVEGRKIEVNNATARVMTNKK
Sequence,RBNS enrichment (R)
UAAUUGAACCACUAGGAAGUGUAUUUUCUUUUCUUUUUCUGCCAACUUUUUGGUGGCAUUUGUAAAAGCUGAUAUAAAAGGCUCUGAGAUGUUAUUUUCAGUUAUUCCAU,0.306
AACACUGUUGUGGUAUGUAUGCUACCUUGAUUAUAGGACCCCCUAAAUGUGACUAUAGUCAUCUUAAUGGGCAUCUUGUCCACUGUGCUUCUUAUGUAUUAUGAAAGUGA,0.666
CCAUUAUCUUAUUUUCUUUGAUACUUUAUUUAAUUAGAUGUUUAUAAAGAAAUGGGUUUAUUUUUCCAGCAUAAACCUCAGAAUUUAAGGAAAGAAAAUGAUGUCUGUUG,0.618
UUACUUCUAAAGAAGUUAGCUUGAACUGAGGAGUAAAAGUGUGUACAUAUAUAAUAUACCCUUACAUUAUGUAUGAGGGAUUUUUUUAAAUUAUAUUGAAAUGCUGCCCU,0.39
CCAGAAUGUAAGAGAGUUGUCUAAGCAGCAGCUGAGAGAGAGCGGAGCCUAUUUCUAGCCACUCCUGUUGACAGUGCACCUGAAGGGCUGGGAUGCGUUUUUCUUGGUGU,1.26
GCGCCCGCCACUCGGGGCCCCUGCCGCGCAUCCUGCAGCCCGCUUAUGCGUAUGUGCACGGGGCCGCCCGCCUGGACCUGGAGAAGGGACCUACGGACGCCUGGAAGCUG,0.369
CUAACUUGGAUUGAAAUGAGUGAGGCCAACUCACAUUCCCAUCAAACACUCUUCCAAGGAAAAGCAGAAGUAAUAAUUGGAGGUAAAGUUUCCUUAGAGAAAAUAAUUUU,0.195
GCCCUAUACAUUUGCUCUUCCUAUAUAAGUUGGUGAACUUUCCUAUAUAACAACAUAGAAUAACAACAACAGAAAAUGAUAAGUACAGAUAAAUGGUUAAUUGUUGGGGC,0.229
CCAACAUUUGACACCCCAGCAAUGUGUGACUCCCCCAACAUUCCACUAUGCCAUCCUGCAGCUGAAAUGGGAACACUGGCUGCCUCUCCAAACCCGCUCUUGGACAGAGG,0.655
UGUGGACACCAAAAUGGCUUAACUGAGAUACAGUGAAAACAUGACAAAUAAACCAACUUUUUACAAGUGCCUCGUCAUCUUUGUAAACGGAGAGCAGAAAGCUUGUUGUG,0.249
UGCUGCUAUCAGGACCCAUUCUGGAGCCCCAUUUCUAACCUAUGAGGCCCUGCCAGCUGUCACUCAGGCUGGAGGAGAAGCAAGUGUUUAUCACUGCUGGAAUUUGGAUG,0.451
GAGAGAGGGACUGUCACUUUCCCAGACAGAAACGGCCUUUUCAGGAACCAGCAGCCGCUAGGCCAAUCCCUGGUGGUCGGUCUCCAUCCCGAUUCCUGCCUGCCCGCUUU,0.277

# Series 4
# Target: Ras GTPase-activating protein-binding protein 1, full length (G3BP1, Homo sapiens, UniProt Q13283)
# UniProt Q13283, sequence (whole entry, looked up): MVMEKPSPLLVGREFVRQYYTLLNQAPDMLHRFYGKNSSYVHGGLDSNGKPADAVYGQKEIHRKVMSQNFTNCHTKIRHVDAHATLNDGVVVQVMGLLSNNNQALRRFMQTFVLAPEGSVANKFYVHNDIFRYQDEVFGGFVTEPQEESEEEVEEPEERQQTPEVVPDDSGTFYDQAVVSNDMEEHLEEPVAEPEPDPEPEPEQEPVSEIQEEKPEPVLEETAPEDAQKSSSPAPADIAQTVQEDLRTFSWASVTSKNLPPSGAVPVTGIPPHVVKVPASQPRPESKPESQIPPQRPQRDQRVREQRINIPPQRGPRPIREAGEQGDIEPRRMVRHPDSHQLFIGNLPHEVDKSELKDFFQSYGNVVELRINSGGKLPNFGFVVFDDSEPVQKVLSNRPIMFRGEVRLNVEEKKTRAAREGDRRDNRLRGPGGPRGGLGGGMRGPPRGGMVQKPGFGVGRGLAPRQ
# Technique: RNA Bind-n-Seq
# Molecule type: RNA
# Medium: in vitro
# Tested at: 200 nM
# Setting: whole 134-nt RNA, ends assumed
# With: 150 mM LiCl
# Baseline: input library
# Direction: higher = stronger binding
# Each molecule: 7-deaza-guanosine replaces G
# Constant ends, left off below: GGGAGUUCUACAGUCCGACGAUC … UGGAAUUCUCGGGUGUCAAGG
Sequence,log2 enrichment
GCAGGAAGUAAAAACAAAUGGAAAUGCUUCGGAUAGUGGCAGGGGUGGGGGUUGCUAAGGAAAGGGUGGGAUGGGGGUGGGUAAAGAGUU,-0.0312
CAAGUCCUGUGCUACACAUCGUAUGUACCGAAUCGGGAGGGAAAAAGGGUUUGGGAAAGUAUUAUGUUACGCCGUUCGGAUCUGCACUUC,-1.06
UGGCCCUGGUGGCAUGCGGGGAGGAAGAGGUGGCCUCAUGGAUCGUGGUGGUCCAGGUGGAAUGUUCAGAGGUGGCCGUGGUGGAGACAG,0.135
GUCCUGUGCUACACAUCGUAUGUACCGAAUCAAAUUUAAACCCCCAAACCCCCCCAAAAAAGUAUUAUGUUACGCCGUUCGGAUCUGCAC,0.382
AGUCCUGUGCUACACAUCGUAUGUACCGAAUCGGGUUUUUGGGAGGGAAAAAAAGGGAAAGUAUUAUGUUACGCCGUUCGGAUCUGCACU,-0.768
UAACUUUAGAGGACGAUCUGAUGGAUAUGGCAGUGGACGUGGAUUUGGGGAUGGCUAUAAUGGGUAUGGAGGAGGACCUGGAGGUGGCAA,-0.0552
GUCCUGUGCUACACAUCGUAUGUACCGAAUCGGGGAAAAAGGAAAAAGGGGAAAAAGGGAAAGUAUUAUGUUACGCCGUUCGGAUCUGCA,-0.136
UGGCCCUGGUGGCAUGCGGGGAGGAAGAGGUGGCCUCAUGGAUCGUGGUGGACCCGGUGGAAUGUUCAGAGGUGGCCGUGGUGGAGACAG,0.988
UGGCCCUGGUGGCAUGCGGGGAGGAAGAGGUGGCCUCAUGGAUCGUGGUGGUCCCGGUGGAAUAUUCAGAGGUGGCCGUGGUGGAGACAG,0.466
CUCAAGUCCUGUGCUACACAUCGUAUGUACCGAAUCGGGAGGGGAGGGGAGGGGAAAGUAUUAUGUUACGCCGUUCGGAUCUGCACUUCC,0.146
UGGCCCUGGUGGCAUGCGGGGAGGAAGAGGUGGCCUCAUGGAUCGUGGUGGUCCCGGUGGAAUGUUCAGAGGUGGCCGUGGUGGAGAAAG,0.453

# Series 5
# Target: Phosphate system positive regulatory protein PHO4, full length, GST-tagged (PHO4, Saccharomyces cerevisiae, UniProt P07270, residues 1-312)
# Technique: competition protein-binding microarray
# Molecule type: double-stranded DNA, one strand shown
# Medium: in vitro
# Tested at: 2 µM
# Setting: whole 60-bp probe, lowest competitor level
# With: Cbf1 competitor, 0.05 µM
# Direction: higher = stronger binding
# Constant ends, left off below: … GTCTTGATTCGCTTGACGCTGCTG
# Construct (chain): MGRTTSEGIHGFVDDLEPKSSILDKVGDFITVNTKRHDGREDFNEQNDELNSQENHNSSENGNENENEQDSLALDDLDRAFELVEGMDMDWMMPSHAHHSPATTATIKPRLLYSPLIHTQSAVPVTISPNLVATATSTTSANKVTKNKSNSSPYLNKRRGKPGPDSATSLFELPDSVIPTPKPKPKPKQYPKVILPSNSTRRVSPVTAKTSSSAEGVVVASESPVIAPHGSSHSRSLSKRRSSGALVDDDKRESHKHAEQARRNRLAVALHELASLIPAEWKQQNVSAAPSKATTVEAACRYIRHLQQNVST
Sequence,fluorescence intensity
CGTTGTCTGAGCAGGAATAAAGAGTTAAGAATATAG,4280 a.u.
CATACCCAACCTTCTCACGTGTTTTAAGATATTTGT,16700 a.u.
CTTCTGTAAATTTGAGCGGTGGGTGGACGCGCCCCG,4500 a.u.
GAGGTACCGATAGATCTCGTGGTGATGGTTACGTTG,9220 a.u.
GTCTTGTCTCATTGAATAGTGGGTGTCCCCACTTCA,4140 a.u.
CTTCTTCAGGGTTTGCACGTTGCCTTCATTCGGTTC,13600 a.u.
CAACCAGTTGCGCAGGGCGTGCCAGATGAACGCTCT,8600 a.u.
AAAGCAAGAACCCTTCACATGTCAAACCTGAACGCA,6050 a.u.
TCCAGAAGAAGAAACGACGTGCCGAGGTCCATTCCA,5710 a.u.
CTAACGAAGGTTTGTCACTGGACTTACAAGCCAAGT,2920 a.u.
AAATTACTAAGTTTTCACGTGGAGTACCCCGTATGA,13800 a.u.
ACACCAAACCTCTTCCACGTGTTTTTCTTGGTGGAT,19100 a.u.
CGGGGTTAAGTTTGTCGTGTGGGTGGCTTGCAGCAG,5730 a.u.
AAATTACTAAGTTGTGATGTGGGTGACGCCGTATGA,4370 a.u.
ACAAACTTTTAAAGCTTCGTGCTTTGGATCAACGAA,7320 a.u.
GTCTTGTCTCATTGTGGGGTGGGTGTCCCCACTTCA,5750 a.u.
CAATGGCTCAGTAACCTCGTGATGGAAAAAGGGCAA,8780 a.u.
CTTTCCCGATCTTGGTCAGTGGGTGTAGCACATTTG,4840 a.u.
TGAAGGTTCTTTCTGCTCGTGAAGAGTCGCTAGACG,3760 a.u.
GTCGAAAGATGACCTCACGTTGCAGCCACCGACACA,8940 a.u.
GTCAAACTCCAAAGACACGTGCTCCCCTCGGCACCA,18700 a.u.
GATAGGGACGCGCATCATGTGTTGCTACTGTGTTTG,7390 a.u.
AAATTACTAAGTTGTCACAAAACTTACCCCGTATGA,2950 a.u.
GTCTTGTCTCATTGTCACGCTACTTTCCCCACTTCA,5770 a.u.
CCCCGCTCTTGTTTTCGCGTGCCGATTCTACAATAA,6380 a.u.

# A few entries again (series 5):
Sequence,fluorescence intensity
AAATTACTAAGTTGTGATGTGGGTGACGCCGTATGA,4370 a.u.
ACAAACTTTTAAAGCTTCGTGCTTTGGATCAACGAA,7320 a.u.
GTCTTGTCTCATTGTGGGGTGGGTGTCCCCACTTCA,5750 a.u.
CAATGGCTCAGTAACCTCGTGATGGAAAAAGGGCAA,8780 a.u.
CTTTCCCGATCTTGGTCAGTGGGTGTAGCACATTTG,4840 a.u.
TGAAGGTTCTTTCTGCTCGTGAAGAGTCGCTAGACG,3760 a.u.
